# Results of several laboratories.
# A part holds a random share of what one study measured. Changes are numbered by the printed parent chain.

# Series 1 — method: universal PBM; molecule type: double-stranded DNA, one strand shown; medium: in vitro; concentration: 600 nM; reading: higher = stronger binding
# Target: Sal-like protein 4, full length isoform A (SALL4, Homo sapiens, UniProt Q9UJQ4, residues 1-1053)
# UniProt Q9UJQ4, sequence (whole entry, looked up): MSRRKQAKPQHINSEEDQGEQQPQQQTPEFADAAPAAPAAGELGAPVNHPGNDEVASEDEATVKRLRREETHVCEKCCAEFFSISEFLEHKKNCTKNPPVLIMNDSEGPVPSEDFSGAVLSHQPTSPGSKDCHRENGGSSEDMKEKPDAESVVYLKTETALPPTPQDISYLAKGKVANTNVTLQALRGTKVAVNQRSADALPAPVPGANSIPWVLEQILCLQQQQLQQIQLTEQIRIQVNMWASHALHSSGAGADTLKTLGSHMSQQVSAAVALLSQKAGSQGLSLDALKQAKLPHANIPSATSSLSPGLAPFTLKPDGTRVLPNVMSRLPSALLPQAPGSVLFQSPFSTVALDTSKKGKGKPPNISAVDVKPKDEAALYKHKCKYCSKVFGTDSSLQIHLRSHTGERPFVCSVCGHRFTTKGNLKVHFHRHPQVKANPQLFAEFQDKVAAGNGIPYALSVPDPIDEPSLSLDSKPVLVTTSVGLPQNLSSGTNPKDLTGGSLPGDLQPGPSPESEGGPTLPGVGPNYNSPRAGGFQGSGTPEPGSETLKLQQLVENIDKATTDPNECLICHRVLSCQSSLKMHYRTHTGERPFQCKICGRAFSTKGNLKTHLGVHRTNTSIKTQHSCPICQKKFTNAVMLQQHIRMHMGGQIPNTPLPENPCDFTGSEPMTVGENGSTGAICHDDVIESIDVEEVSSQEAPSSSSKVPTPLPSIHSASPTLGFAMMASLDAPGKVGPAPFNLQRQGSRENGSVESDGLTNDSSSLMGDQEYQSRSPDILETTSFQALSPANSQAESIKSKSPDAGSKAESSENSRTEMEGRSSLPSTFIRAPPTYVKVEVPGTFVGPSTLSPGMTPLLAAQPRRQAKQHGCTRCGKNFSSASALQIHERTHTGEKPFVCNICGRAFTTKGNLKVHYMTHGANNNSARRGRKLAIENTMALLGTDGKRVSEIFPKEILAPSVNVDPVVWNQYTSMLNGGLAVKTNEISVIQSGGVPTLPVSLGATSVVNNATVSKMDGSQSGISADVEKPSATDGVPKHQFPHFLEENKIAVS
# Notes: 8-mer, flanks averaged, mean of replicates
Oligonucleotide,E-score
ATAGCCCA,0.035
ATCGCAAC,-0.0782
CCCACATA,0.133
GCCGGCAC,-0.347
AATCGGTC,-0.0584
CTGGAGGC,-0.108
CGTCGCCC,-0.34
GCATGCCA,-0.266

# Series 2 — method: protein-binding microarray; molecule type: hairpin DNA; medium: in vitro; concentration: not given; relative to: not given; reading: higher = stronger binding
# Target: Runt-related transcription factor 1, full length (RUNX1, Homo sapiens, UniProt Q01196-8, residues 1-480)
# Notes: whole hairpin DNA, median over replicate spots
Oligonucleotide,median fluorescence [a.u.]
GAGGCCTGTTGTGCTTGGCCTCCTGGCCAAGCACAACAGGCCTCACACTC,1700
GAGGCCTGTCGCGGTTGGCCTCCTGGCCAACCGCGACAGGCCTCACACTC,2620
GAGGCCTGCTGCGGTTGGCCTCCTGGCCAACCGCAGCAGGCCTCACACTC (5mC at 9),5220
GAGGCCTGTCGCGGTTGGCCTCCTGGCCAACCGCGACAGGCCTCACACTC (5mC at 10),4680
GAGGCCCAACCGCAACGGCCTCCTGGCCGTTGCGGTTGGGCCTCACACTC (5mC at 28),5940
CTCAGTTCTATGGGCTGGACTCCTGTCCAGCCCATAGAACTGAGACACTC,1660
GAGGCCCAAGCGCAACAGCCTCCTGGCTGTTGCGCTTGGGCCTCACACTC (5mC at 35),1690
GAGGCCTCTTGTGGTTGGCCTCCTGGCCAACCACAAGAGGCCTCACACTC (5mC at 8),2950

# Series 3 — target: CEBPB, bZIP domain (human); method: DHFR protein complementation; medium: yeast; relative to: wild-type JUN-FOS pair; reading: higher = stronger binding
# Notes: single substitutions, most at no-binding floor
# Starting sequence: JUN, bZIP domain (human); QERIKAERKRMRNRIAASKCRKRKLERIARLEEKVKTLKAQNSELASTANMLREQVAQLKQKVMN; partner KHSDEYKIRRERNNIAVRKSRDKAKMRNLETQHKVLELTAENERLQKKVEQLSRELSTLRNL
Substitution,binding fitness
V56F,-1.54 natural log
L31S,-1.42 natural log
E44P,-1.48 natural log
A29D,-1.25 natural log
T37N,-1.24 natural log
K36R,-1.12 natural log
R53D,-1.27 natural log
Q41D,-1.46 natural log

# Single results of other studies — starting sequence: viral docking peptide; KGVKRKLFAEDSS
Substitution,target,assay,test system,setting,how to read,measurement,result
KGVKRKLWAEDSS [F8W],"CCND1, cyclin fold, Cln2 fusion (human)","yeast growth competition, sequencing",yeast,strong parent motif,"relative to: not given, higher = stronger binding",normalised enrichment score,0.0515

# Repeated from above (series 3):
Substitution,binding fitness
L31S,-1.42 natural log
A29D,-1.25 natural log
T37N,-1.24 natural log
E44P,-1.48 natural log
